{"data": "Results gathered from unrelated publications", "cell line": "HepG2", "note": "Lines come from different studies, so protocols differ. Values joined by “and” are separate records of one study, mostly repeats; a detail may differ. Numbers after ± are the reported error."}
{"SMILES": "Nc1ccn([C@H]2CC[C@@H](CO)O2)c(=O)n1", "assay": "qPCR", "conditions": "2.0 µM, 10 days, 3", "how to read": "reference: untreated", "measurement": "mitochondrial DNA content", "result": "25.1 ± 7.8%"}
{"SMILES": "CCOC(=O)c1nn(-c2cccc(Cl)c2)/c(=N/N=C(\\C)c2ccc(NC(=O)c3ccccc3)cc2)s1", "assay": "MTT", "conditions": "0.625 µM", "measurement": "cytotoxicity", "result": "96.8%"}
{"SMILES": "OC[C@H]1O[C@@H](n2cnc3c(O)nc(O)nc32)[C@H](O)[C@@H]1O", "assay": "cell viability, MTT", "conditions": "24 h", "measurement": "IC50", "result": "3560 µM"}
{"SMILES": "Nc1n[nH]c2nc(-c3cccc(O)c3)cc(-c3cc4cc(Cl)ccc4nc3N3CCOCC3)c12", "assay": "MTT", "how to read": "reference: WI-38 EC50 over HepG2 IC50", "measurement": "selectivity ratio", "result": 1.47}
{"SMILES": "Cc1nc2ccccc2n(CC(=O)Nc2ccc(C(=O)Nc3cccc(Cl)c3)cc2)c1=O", "assay": "Annexin V-FITC/PI staining", "conditions": "2.3 µM", "how to read": "reference: untreated control", "measurement": "early apoptotic cells", "result": "> 4 fold"}
{"SMILES": "COc1ccc(NC(=O)c2c(Nc3ccccc3)sc(C(=O)NN=Cc3ccc(OC)c(O)c3)c2NC(C)=O)cc1", "assay": "ELISA", "conditions": "IC50, 24 h", "measurement": "Bcl-2 level", "result": "357 ± 21.3 pg/mL"}
{"SMILES": "CC(=O)c1nn(-c2ccc(Cl)cc2)/c(=N/N=C(\\C)c2ccc(NC(=O)c3ccc(C)cc3)cc2)s1", "conditions": "2.5 µM", "measurement": "viability", "result": "2.82%"}
{"SMILES": "CC(C)(C)c1cc(O)ccc1O", "assay": "extracellular flux, item: reserve respiratory capacity", "conditions": "1 h, representative mode", "measurement": "point of departure", "result": "14.1 µM"}
{"SMILES": "CC(=O)Nc1ccc(/C(C)=N/N=c2\\sc(C(C)=O)nn2-c2ccc(C)cc2)cc1", "assay": "MTT", "conditions": "2.5 µM", "measurement": "cytotoxicity", "result": "0.59%"}
{"SMILES": "c1cnc2c(c1)ccc1cccnc12", "conditions": "25 µg/mL", "measurement": "IL-4 mRNA level", "result": "decreased"}
{"SMILES": "NC[C@H](OCC(=O)N1CCC[C@H](C(=O)NCc2nc(-c3ccc(C(F)(F)F)cc3)cs2)C1)c1ccccc1", "assay": "cytotoxicity", "measurement": "EC50", "result": "~20 µM"}
{"SMILES": "CC(=NN=c1scc(-c2ccccc2)n1C)c1c(O)c2ccccc2oc1=O", "assay": "cell growth, MTT", "how to read": "reference: IC50 BJ-1 over HepG2", "measurement": "selectivity index", "result": "> 1.51"}
{"SMILES": "O=C(O)Cc1ccccc1Nc1c(Cl)cccc1Cl", "assay": "protein level, item: BiP", "conditions": "24 h", "measurement": "representative mode point of departure", "result": "126 µM"}
{"SMILES": "COc1ccc2nc(N3CCOCC3)c(-c3cc(-c4cccc(O)c4)nc4[nH]nc(N)c34)cc2c1", "assay": "MTT", "how to read": "reference: WI-38 EC50 over HepG2 IC50", "measurement": "selectivity ratio", "result": 1.71}
{"SMILES": "CCn1cc(-c2cc(Cn3ccnc3)cc3c2CCN([C@H](c2cc(OC)ccn2)C2CC2)C3=O)c(C(F)(F)F)n1", "assay": "cell growth, inhibitor", "conditions": "120 h", "measurement": "EC50", "result": "7.52 µM"}
{"SMILES": "CCOC(=O)/C=C\\C(=O)OCC", "assay": "high content imaging, item: DNA structure", "conditions": "24 h, distribution mode 2", "measurement": "point of departure", "result": "186 µM and 204 µM"}
{"SMILES": "C#CCN1CCN(Cc2c(O)ccc3oc(-c4ccc(OC)cc4)c(C(=O)OCC)c23)CC1", "assay": "cytotoxicity, resazurin", "conditions": "up to 200 µM, 18 h", "measurement": "IC50", "result": "not toxic"}
{"SMILES": "CC(=O)c1nn(-c2ccc(Cl)cc2)/c(=N/N=C(\\C)c2ccc(NC(=O)c3ccc(Cl)cc3)cc2)s1", "conditions": "0.625 µM", "measurement": "toxicity", "result": "1.86%"}
{"SMILES": "CC(=O)c1nn(-c2ccccc2Cl)/c(=N/N=C(\\C)c2ccc(NC(=O)c3ccccc3)cc2)s1", "assay": "MTT", "conditions": "10 µM", "measurement": "cytotoxicity", "result": "93.9%"}
{"SMILES": "CCOC(=O)c1cccc(NC(=O)c2sc(Cl)cc2S(=O)(=O)N(C)c2ccc(OCC)c(OCC)c2)c1", "assay": "SRE promoter reporter, activator, luciferase reporter", "measurement": "EC50", "result": "1.5 µM"}
{"SMILES": "COc1ccc(-n2nc(C(C)=O)s/c2=N\\N=C(/C)c2ccc(NC(=O)c3ccccc3)cc2)cc1", "conditions": "2.5 µM", "measurement": "toxicity", "result": "97.2%"}
{"SMILES": "N#C[C@@]1(c2ccc3c(N)ncnn23)O[C@H](CO)[C@@H](O)[C@H]1O", "assay": "qPCR", "conditions": "1.0 µM, 10 days, 3", "how to read": "reference: untreated", "measurement": "mitochondrial DNA content", "result": "96.1 ± 31.5%"}
{"SMILES": "CCOC(=O)c1cccc(NC(=O)c2sc(Cl)cc2S(=O)(=O)N(C)c2ccc(OCC)cc2)c1", "assay": "SRE promoter reporter, activator, luciferase reporter", "measurement": "EC50", "result": "4.3 µM"}
{"SMILES": "CC(C)Cc1ccc([C@@H](C)[C@H](O)CC(C)C)cc1 (racemic)", "conditions": "250 µM, 48 h", "measurement": "cells killed", "result": "94%"}
{"SMILES": "CC(=O)c1nn(-c2ccc(C)cc2)/c(=N/N=C(\\C)c2ccc(NC(=O)c3ccccc3)cc2)s1", "assay": "MTT", "conditions": "1.25 µM", "measurement": "cytotoxicity", "result": "94.1%"}
{"SMILES": "CC(=NN=c1sc(N=Nc2ccc(C)cc2)c(C)n1C)c1c(O)c2ccccc2oc1=O", "assay": "cell growth, MTT", "how to read": "reference: IC50 BJ-1 over HepG2", "measurement": "selectivity index", "result": "> 1.34"}
{"SMILES": "CCOC(=O)c1nn(-c2cccc(Cl)c2)/c(=N/N=C(\\C)c2ccc(NC(=O)c3ccc(Cl)cc3)cc2)s1", "assay": "MTT", "conditions": "1.25 µM", "measurement": "cytotoxicity", "result": "97.4%"}
{"SMILES": "COc1ccc(NC(=O)c2c(Nc3ccccc3)sc(C#N)c2NC(=O)CNc2ccc(Cl)cc2)cc1", "assay": "ELISA", "conditions": "IC50, 24 h", "measurement": "active caspase-7 level", "result": "246 ± 18.6 pg/mL"}
{"SMILES": "COc1ccc(-n2nc(C(C)=O)s/c2=N\\N=C(/C)c2ccc(NC(=O)c3ccc(C)cc3)cc2)cc1", "conditions": "0.156 µM", "measurement": "viability", "result": "53.8%"}
{"SMILES": "CCn1c(C)csc1=NN=C(C)c1c(O)c2ccccc2oc1=O", "assay": "cell growth, MTT", "how to read": "reference: IC50 BJ-1 over HepG2", "measurement": "selectivity index", "result": "> 1.47"}
{"SMILES": "O=C(/C=C/c1cccc(S(=O)(=O)Nc2ccccc2)c1)NO", "conditions": "25 µg/mL", "how to read": "reference: untreated", "measurement": "TNF-α mRNA level", "result": "increased"}
{"SMILES": "CCc1ccc(CCOc2ccc(CC3SC(=O)NC3=O)cc2)nc1 (stereo not drawn)", "assay": "item: MTT reduction", "conditions": "24 h, representative mode", "measurement": "point of departure", "result": "46.8 µM"}
{"SMILES": "C[C@H]1O[C@@H](O[C@H]2CC[C@@]3(C)[C@@H](CC[C@]4(C)[C@@H]3C=CC3=C5CC(C)(C)CC[C@]5(CO)[C@@H](O)C[C@]34C)[C@]2(C)CO)[C@H](O)[C@@H](O[C@@H]2O[C@H](CO)[C@@H](O)[C@H](O)[C@H]2O)[C@H]1O", "assay": "flow cytometry", "conditions": "concentration not given, high dose, added: ethanol", "how to read": "reference: control", "measurement": "ROS level", "result": "2.61 fold and 3.1 fold and 3.43 fold"}
{"SMILES": "NC(=S)N/N=C1\\C(=O)N(CCn2cnc3c(N)ncnc32)c2ccc(F)cc21", "assay": "cell growth, SRB", "conditions": "72 h", "measurement": "IC50", "result": "22.3 ± 6.44 µg/mL"}
{"SMILES": "CCOC(=O)[C@H](Cc1ccccc1)NC(=O)c1cc(Cl)c(OCCN2CCN(C)CC2)c(Cl)c1O.Cl.Cl", "assay": "PAS-seq", "conditions": "20 µM, 4 h, distal to proximal", "measurement": "genes shifted to proximal PAS", "result": "847 genes"}
{"SMILES": "CC(=NN=C1SCC(=O)N1C)c1c(O)c2ccccc2oc1=O", "assay": "cell growth, MTT", "how to read": "reference: IC50 BJ-1 over HepG2", "measurement": "selectivity index", "result": "> 1.52"}
{"SMILES": "CN(CCOc1ccc(CC2SC(=O)NC2=O)cc1)c1ccccn1 (stereo not drawn)", "assay": "respiratory reserve capacity, extracellular flux", "conditions": "6 h", "measurement": "representative mode point of departure", "result": "1.2 µM"}
{"SMILES": "CC(=NN=C1SC(C)C(=O)N1C)c1c(O)c2ccccc2oc1=O (stereo not drawn)", "assay": "cell growth, MTT", "how to read": "reference: IC50 BJ-1 over HepG2", "measurement": "selectivity index", "result": "> 1.49"}
{"SMILES": "O=C1C(=O)N(CCn2ncc3c(=O)[nH]cnc32)c2ccccc21", "assay": "cell growth, SRB", "conditions": "72 h", "measurement": "IC50", "result": "46.4 ± 4.67 µg/mL"}
{"note": "Excerpt of the above:"}
{"SMILES": "c1cnc2c(c1)ccc1cccnc12", "conditions": "25 µg/mL", "measurement": "IL-4 mRNA level", "result": "decreased"}
{"SMILES": "CCOC(=O)c1cccc(NC(=O)c2sc(Cl)cc2S(=O)(=O)N(C)c2ccc(OCC)c(OCC)c2)c1", "assay": "SRE promoter reporter, activator, luciferase reporter", "measurement": "EC50", "result": "1.5 µM"}
{"SMILES": "O=C(/C=C/c1cccc(S(=O)(=O)Nc2ccccc2)c1)NO", "conditions": "25 µg/mL", "how to read": "reference: untreated", "measurement": "TNF-α mRNA level", "result": "increased"}
{"SMILES": "CC(=O)c1nn(-c2ccccc2Cl)/c(=N/N=C(\\C)c2ccc(NC(=O)c3ccccc3)cc2)s1", "assay": "MTT", "conditions": "10 µM", "measurement": "cytotoxicity", "result": "93.9%"}
{"SMILES": "CCn1cc(-c2cc(Cn3ccnc3)cc3c2CCN([C@H](c2cc(OC)ccn2)C2CC2)C3=O)c(C(F)(F)F)n1", "assay": "cell growth, inhibitor", "conditions": "120 h", "measurement": "EC50", "result": "7.52 µM"}
